Measurements of several laboratories.

`OCc1ncc2n1-c1ccc(Cl)cc1C(c1ccccc1F)=NC2` has an AUC(0-inf) of 29.3 ng·h/mL (healthy human volunteers, plasma; 5 mg single dose, day 1, fed, given alone).
With `O=C(O)C[C@H](O)C[C@H](O)/C=C/c1c(C2CC2)nc2ccccc2c1-c1ccc(F)cc1` the AUC(0-inf) was 67.3 ng·h/mL (human, plasma; oral, 2 mg).
The AUC(0-inf) of `OCc1ncc2n1-c1ccc(Cl)cc1C(c1ccccc1F)=NC2` is reported as 9.41 ng·h/mL (human; dose not given, added: risdiplam).
The AUC(0-inf) of `OCc1ncc2n1-c1ccc(Cl)cc1C(c1ccccc1F)=NC2` is reported as 12.1 ng·h/mL (human; dose not given, metabolite of midazolam, added: midazolam alone).
With `C[C@]1(CO)Cc2ncn(-c3ccc(C#N)c(Cl)c3)c2C(=O)O1` the AUC(0-inf) was 7 µM·h (human, Chinese, plasma; 20 mg single dose, geometric mean).
`CC(=O)c1c(C)c2cnc(Nc3ccc(C4CCN(CCS(C)(=O)=O)CC4)cn3)nc2n(C2CCCC2)c1=O` has an AUC(0-inf) of 1410 ng·h/mL (human, dose-escalation trial, plasma; oral, 75 mg twice daily, day 1, single dose).
`O[C@H]1CCCN[C@@H]1CCCn1cnc2c(Cl)c(Cl)ccc21` gave an AUC(0-inf) of 930 ng·h/mL (healthy humans, plasma; oral, 150 mg single dose).
For `O=c1ccc2ncc(=O)n3c2n1C[C@H]3CN1CCC(NCc2cc3c(cn2)OCCC3)CC1`, the AUC(0-inf) was 10000 ng·h/mL (healthy human volunteers, plasma; oral, dose not given, arithmetic mean, added: rifampicin).
With `N.N.O=C([O-])C1(C(=O)[O-])CCC1.[Pt+2]` the AUC(0-inf) was 25000 ng·h/mL (measured: unbound platinum; human, plasma ultrafiltrate; intravenous, AUC 2, median, dose level -4).
`Cc1ncc2n1-c1ccc(Cl)cc1C(c1ccccc1F)=NC2` has an AUC(0-inf) of 28.7 ng·h/mL (human, plasma; oral, 2 mg, day 1, single dose alone, mean).
For `OCc1ncc2n1-c1ccc(Cl)cc1C(c1ccccc1F)=NC2`, the AUC(0-inf) was 6.66 ng·h/mL (human, plasma; oral, 2 mg midazolam, day 1, midazolam alone, geometric mean).
For `OCc1ncc2n1-c1ccc(Cl)cc1C(c1ccccc1F)=NC2`, the AUC(0-inf) was 15.4 ng·h/mL (humans, plasma; 3 mg of midazolam, midazolam alone).
The AUC(0-inf) of `OCc1ncc2n1-c1ccc(Cl)cc1C(c1ccccc1F)=NC2` is reported as 43.2 ng·h/mL (human, plasma; oral, 7.5 mg of midazolam, day 19, geometric mean, no amenamevir).
With `COc1ccc(C[C@@H]2NC(=O)[C@H]([C@@H](C)O)NC(=O)[C@@H]3[C@@H]4CCN3C(=O)[C@@H]3Cc5cn(c6ccc(F)cc56)CCCCCCN(Cc5ccc(cc5)CCNC(=O)[C@]5(C)CCCN5C2=O)C(=O)CCC(=O)N[C@@H](C)C(=O)N[C@H](CNC(=O)CCCCC[N+](C)(C)C)C(=O)N[C@@H](Cc2cccc(c2)CNC(=O)CO4)C(=O)N3)cc1` the AUC(0-inf) was 0.979 µM·h (human, plasma; oral, 100 mg single, geometric mean, added: sodium caprate 1800 mg).

Excerpt of the above:
With `C[C@]1(CO)Cc2ncn(-c3ccc(C#N)c(Cl)c3)c2C(=O)O1` the AUC(0-inf) was 7 µM·h (human, Chinese, plasma; 20 mg single dose, geometric mean).
`CC(=O)c1c(C)c2cnc(Nc3ccc(C4CCN(CCS(C)(=O)=O)CC4)cn3)nc2n(C2CCCC2)c1=O` has an AUC(0-inf) of 1410 ng·h/mL (human, dose-escalation trial, plasma; oral, 75 mg twice daily, day 1, single dose).
